Measured values collected from several papers.
Compare with care: the assays were run in different laboratories. Several values in a cell are separate wells, animals, samples, runs or records. Numbers after ± are the reported error. Converted amounts (≈) assume the structure as drawn.

CCc1cc(=O)n2c(=O)/c(=C/c3ccc(OC(C)=O)c(OC)c3)sc2n1 — inhibition (Chikungunya virus; virus-induced cell death, MTS/PMS; BGM, Indian Ocean 899; 20 µg/mL): 5.5%
COc1ccc(CNC(=O)C(NC(=O)C2CC2c2cc(C)cc(C)c2)c2ccc(C)c(C)c2)c(OC)c1 (mixture of isomers) — EC50 (Chikungunya virus; viral replication; BHK-21; 16 h): > 100000 nM
Cc1cc(/C=C/C#N)cc(C)c1Nc1nc(Nc2ccc(C#N)cc2)ncc1N — EC50 (HIV-1; viral replication, single-round infection; RT mutant E138K): 2.1 ± 0.1 nM
CCCCCCCCCCCCCCCC(=O)N[C@@H](CCC(=O)NCCOCCOCCC(=O)NCCOCCOCCC(=O)NCCCC[C@H](NC(=O)[C@H](CC(=O)O)NC(=O)[C@H](CC(C)C)NC(=O)[C@H](Cc1ccc(O)cc1)NC(=O)[C@H](CCCCN)NC(=O)[C@H](CO)NC(=O)[C@H](Cc1ccc(O)cc1)NC(=O)[C@H](CC(=O)O)NC(=O)[C@H](CO)NC(=O)[C@@H](NC(=O)[C@H](Cc1ccccc1)NC(=O)[C@@H](NC(=O)CNC(=O)[C@H](CCC(N)=O)NC(=O)[C@@H](CO)NC(=O)[C@@H](N)Cc1c[nH]cn1)[C@@H](C)O)[C@@H](C)O)C(=O)N[C@@H](CCCNC(=N)N)C(=O)N[C@@H](CCCNC(=N)N)C(=O)N[C@@H](C)C(=O)N[C@@H](CCC(N)=O)C(=O)N[C@@H](CC(=O)O)C(=O)N[C@@H](Cc1ccccc1)C(=O)N[C@H](C(=O)N[C@@H](CCC(N)=O)C(=O)N[C@@H](Cc1c[nH]c2ccccc12)C(=O)N[C@@H](CC(C)C)C(=O)N[C@@H](CC(C)C)C(=O)N[C@@H](CC(N)=O)C(=O)N[C@H](C(=O)NCC(=O)NCC(=O)N1CCC[C@H]1C(=O)N[C@@H](CO)C(=O)N[C@@H](CO)C(=O)NCC(=O)N[C@@H](C)C(=O)N1CCC[C@H]1C(=O)N1CCC[C@H]1C(=O)N1CCC[C@H]1C(=O)N[C@@H](CO)C(N)=O)[C@@H](C)O)C(C)C)C(=O)O — serum enzyme activity (measured: ALT; rhesus monkey, female; subcutaneous, 60 µg/kg once daily, 28 days): 56.9 ± 23.8 U/L
Nc1nc(Nc2ccc(Cl)cc2)nn1S(=O)(=O)c1ccc2ccccc2c1 — EC50 (Chikungunya virus; viral replication; Vero 76, S27): > 7300 nM
CCc1cc(=O)n2c(=O)/c(=C/c3ccc(OC)cc3)sc2n1 — inhibition (Chikungunya virus; virus-induced cell death, MTS/PMS; BGM, Indian Ocean 899; 20 µg/mL): 4.3%
CC[C@H](C)C(=O)N1CCC(NC(=O)Nc2ccc(OC(F)(F)F)c(F)c2)CC1 — subjects with COVID-19 TEAE (healthy volunteers; oral, 16 mg single dose): 0%
O=c1cc(-c2ccccc2)oc2c(Br)c(O)c(O)c(O)c12 — latest time of addition retaining inhibition (Chikungunya virus; viral replication; Vero; 10 µM, time after infection): < 12 h
O=C(N1CCC2(CC1)CC(CN1CCCCS1(=O)=O)CCO2)C1(c2ccccc2)CCCC1 (racemic) — EC50 (Chikungunya virus; viral replication): 130 nM
CC[C@H](C)[C@H](NC(=O)[C@H](CCCCN)NC(=O)[C@H](CCCCN)NC(=O)[C@H](CC(C)C)NC(=O)[C@H](Cc1c[nH]c2ccccc12)NC(=O)CN)C(=O)NCC(=O)N[C@@H](CCCCN)C(=O)N[C@@H](CCCCN)C(=O)N[C@H](C(=O)N[C@@H](CCC(=O)O)C(=O)N[C@@H](CCCNC(=N)N)C(=O)N[C@H](C(=O)NCC(=O)N[C@@H](CCC(N)=O)C(=O)N[C@@H](Cc1c[nH]cn1)C(=O)N[C@H](C(=O)N[C@@H](CCCNC(=N)N)C(=O)N[C@@H](CC(=O)O)C(=O)N[C@@H](C)C(=O)N[C@H](C(=O)N[C@H](C(=O)N[C@@H](CCC(N)=O)C(=O)N[C@H](C(=O)N[C@H](C(=O)NCC(=O)N[C@H](C(=O)N[C@@H](C)C(=O)N[C@@H](CCC(N)=O)C(=O)N[C@@H](CCC(N)=O)C(=O)N[C@@H](C)C(=O)N[C@@H](C)C(=O)N[C@@H](CC(N)=O)C(=O)N[C@H](C(=O)N[C@@H](C)C(=O)N[C@@H](C)C(=O)N[C@H](C(=O)N[C@@H](CC(C)C)C(=O)N[C@@H](CCCCN)C(N)=O)[C@@H](C)O)C(C)C)C(C)C)[C@@H](C)CC)[C@@H](C)O)[C@@H](C)CC)[C@@H](C)O)[C@@H](C)O)C(C)C)[C@@H](C)CC — MIC (Acinetobacter baumannii; isolate RKI 19/09, CAMHB): 4 µg/mL (≈ 0.952 µM)
CN1CCN(C(=O)N[C@@H](Cc2ccccc2)C(=O)N[C@H](/C=C/S(=O)(=O)c2ccccc2)CCc2ccccc2)CC1 — IC50 (Chikungunya virus; pseudovirus entry; HEK-293T): > 100 nM
CCCCCCCCCCCCCCCC(=O)N[C@@H](CSCC(COC(=O)CCCCCCCCCCCCCCC)OC(=O)CCCCCCCCCCCCCCC)C(=O)N[C@@H](CO)C(=O)N[C@@H](CCCCN)C(=O)N[C@@H](CCCCN)C(=O)N[C@@H](CCCCN)C(=O)N[C@@H](CCCCN)C(=O)O (stereo partly shown) — infectivity (Chikungunya virus; viral infection; concentration not given): 172% and 170% and 165% and 173%
Cc1cc(C(NC(=O)C2CC2c2ccc(C)c(C)c2)C(N)=O)cc(C(F)(F)F)c1 (mixture of isomers) — EC50 (Chikungunya virus; viral replication; BHK-21; 16 h): 95900 nM

Repeated from above:
CCCCCCCCCCCCCCCC(=O)N[C@@H](CSCC(COC(=O)CCCCCCCCCCCCCCC)OC(=O)CCCCCCCCCCCCCCC)C(=O)N[C@@H](CO)C(=O)N[C@@H](CCCCN)C(=O)N[C@@H](CCCCN)C(=O)N[C@@H](CCCCN)C(=O)N[C@@H](CCCCN)C(=O)O (stereo partly shown) — infectivity (Chikungunya virus; viral infection; concentration not given): 172% and 170% and 165% and 173%
